Results collected from several papers.
Lines come from different studies, so protocols differ. Several values in a cell are separate wells, animals, samples, runs or records. ± gives the spread as reported. Values after ≈ are worked out from the molar mass of the structure shown.
UniProt P21554, sequence (whole entry, unmodified, looked up): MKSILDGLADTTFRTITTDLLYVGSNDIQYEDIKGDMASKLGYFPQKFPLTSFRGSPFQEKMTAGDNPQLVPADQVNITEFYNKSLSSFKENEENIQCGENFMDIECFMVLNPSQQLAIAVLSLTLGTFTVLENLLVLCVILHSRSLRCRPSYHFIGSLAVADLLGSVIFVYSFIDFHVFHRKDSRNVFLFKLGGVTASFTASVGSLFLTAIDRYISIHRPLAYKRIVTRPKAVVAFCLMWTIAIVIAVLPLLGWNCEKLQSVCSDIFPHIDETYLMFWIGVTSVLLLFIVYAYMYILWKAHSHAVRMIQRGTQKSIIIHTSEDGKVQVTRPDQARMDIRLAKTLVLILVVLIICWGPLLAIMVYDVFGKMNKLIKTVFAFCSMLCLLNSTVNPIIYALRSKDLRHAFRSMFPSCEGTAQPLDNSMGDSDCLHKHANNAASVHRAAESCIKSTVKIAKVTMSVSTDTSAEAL
UniProt P47898, sequence (whole entry, looked up): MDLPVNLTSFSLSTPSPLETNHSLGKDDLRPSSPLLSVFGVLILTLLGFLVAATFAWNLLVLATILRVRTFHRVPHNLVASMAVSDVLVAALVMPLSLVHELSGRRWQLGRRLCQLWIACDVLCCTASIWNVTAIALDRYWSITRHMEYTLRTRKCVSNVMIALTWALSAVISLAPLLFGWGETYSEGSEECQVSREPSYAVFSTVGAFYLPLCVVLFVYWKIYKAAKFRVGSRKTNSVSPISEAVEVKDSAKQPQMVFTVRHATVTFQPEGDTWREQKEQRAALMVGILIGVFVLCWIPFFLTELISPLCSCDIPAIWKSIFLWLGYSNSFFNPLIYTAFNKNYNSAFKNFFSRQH
UniProt P08069, sequence (whole entry, looked up): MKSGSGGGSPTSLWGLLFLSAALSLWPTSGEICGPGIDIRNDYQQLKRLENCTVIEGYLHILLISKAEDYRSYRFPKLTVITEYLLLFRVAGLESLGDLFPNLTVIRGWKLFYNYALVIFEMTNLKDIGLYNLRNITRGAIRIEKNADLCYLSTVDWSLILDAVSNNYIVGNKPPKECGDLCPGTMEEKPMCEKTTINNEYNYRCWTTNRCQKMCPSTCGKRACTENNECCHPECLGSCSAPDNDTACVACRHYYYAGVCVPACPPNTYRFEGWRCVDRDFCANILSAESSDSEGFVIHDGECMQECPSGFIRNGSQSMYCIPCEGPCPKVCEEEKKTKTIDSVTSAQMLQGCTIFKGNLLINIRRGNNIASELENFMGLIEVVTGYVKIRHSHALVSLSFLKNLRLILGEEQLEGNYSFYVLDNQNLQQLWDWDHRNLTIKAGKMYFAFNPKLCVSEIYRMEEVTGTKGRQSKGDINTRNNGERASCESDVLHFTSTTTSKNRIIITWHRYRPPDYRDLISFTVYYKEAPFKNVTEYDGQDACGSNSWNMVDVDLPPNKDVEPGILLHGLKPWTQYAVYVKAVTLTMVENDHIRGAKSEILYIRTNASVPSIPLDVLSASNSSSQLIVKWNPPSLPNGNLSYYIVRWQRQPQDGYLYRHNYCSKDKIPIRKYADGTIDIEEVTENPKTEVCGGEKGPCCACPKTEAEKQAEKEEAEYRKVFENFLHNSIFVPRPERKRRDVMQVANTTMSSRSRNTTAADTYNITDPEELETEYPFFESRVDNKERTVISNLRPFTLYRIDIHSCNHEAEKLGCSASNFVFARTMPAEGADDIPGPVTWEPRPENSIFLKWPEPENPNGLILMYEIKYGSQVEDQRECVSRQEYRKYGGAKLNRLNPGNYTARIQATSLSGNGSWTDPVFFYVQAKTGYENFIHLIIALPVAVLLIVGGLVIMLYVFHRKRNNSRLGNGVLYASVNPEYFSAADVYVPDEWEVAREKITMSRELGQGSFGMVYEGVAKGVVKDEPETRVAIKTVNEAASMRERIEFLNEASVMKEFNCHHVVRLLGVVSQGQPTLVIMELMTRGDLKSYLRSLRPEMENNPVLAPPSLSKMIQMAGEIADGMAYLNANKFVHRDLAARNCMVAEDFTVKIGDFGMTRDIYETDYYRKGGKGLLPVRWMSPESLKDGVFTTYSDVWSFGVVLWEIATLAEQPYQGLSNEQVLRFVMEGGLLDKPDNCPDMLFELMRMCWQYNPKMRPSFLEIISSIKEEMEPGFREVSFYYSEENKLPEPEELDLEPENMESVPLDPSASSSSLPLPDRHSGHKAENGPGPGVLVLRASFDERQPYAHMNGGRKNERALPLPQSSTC
UniProt P45985, sequence (whole entry, looked up): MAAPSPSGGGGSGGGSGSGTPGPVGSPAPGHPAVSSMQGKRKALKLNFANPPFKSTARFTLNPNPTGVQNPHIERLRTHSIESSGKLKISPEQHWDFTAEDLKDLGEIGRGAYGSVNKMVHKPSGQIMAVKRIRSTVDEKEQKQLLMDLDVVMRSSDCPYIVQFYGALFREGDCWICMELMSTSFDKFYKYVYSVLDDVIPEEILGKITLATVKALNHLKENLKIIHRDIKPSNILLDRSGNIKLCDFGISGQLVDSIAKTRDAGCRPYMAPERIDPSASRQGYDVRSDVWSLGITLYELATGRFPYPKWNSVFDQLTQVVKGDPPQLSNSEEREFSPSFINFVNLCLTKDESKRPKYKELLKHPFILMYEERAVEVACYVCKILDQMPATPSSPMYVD
UniProt P06748, sequence (whole entry, looked up): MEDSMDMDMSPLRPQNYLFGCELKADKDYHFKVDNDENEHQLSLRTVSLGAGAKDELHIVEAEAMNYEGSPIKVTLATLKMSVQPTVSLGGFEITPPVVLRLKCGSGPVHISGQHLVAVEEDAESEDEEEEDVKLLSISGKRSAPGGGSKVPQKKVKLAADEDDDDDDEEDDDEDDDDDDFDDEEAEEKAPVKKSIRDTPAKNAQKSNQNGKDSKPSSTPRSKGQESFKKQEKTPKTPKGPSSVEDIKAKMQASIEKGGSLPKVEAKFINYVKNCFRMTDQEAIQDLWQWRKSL
UniProt O96017, sequence (whole entry, looked up): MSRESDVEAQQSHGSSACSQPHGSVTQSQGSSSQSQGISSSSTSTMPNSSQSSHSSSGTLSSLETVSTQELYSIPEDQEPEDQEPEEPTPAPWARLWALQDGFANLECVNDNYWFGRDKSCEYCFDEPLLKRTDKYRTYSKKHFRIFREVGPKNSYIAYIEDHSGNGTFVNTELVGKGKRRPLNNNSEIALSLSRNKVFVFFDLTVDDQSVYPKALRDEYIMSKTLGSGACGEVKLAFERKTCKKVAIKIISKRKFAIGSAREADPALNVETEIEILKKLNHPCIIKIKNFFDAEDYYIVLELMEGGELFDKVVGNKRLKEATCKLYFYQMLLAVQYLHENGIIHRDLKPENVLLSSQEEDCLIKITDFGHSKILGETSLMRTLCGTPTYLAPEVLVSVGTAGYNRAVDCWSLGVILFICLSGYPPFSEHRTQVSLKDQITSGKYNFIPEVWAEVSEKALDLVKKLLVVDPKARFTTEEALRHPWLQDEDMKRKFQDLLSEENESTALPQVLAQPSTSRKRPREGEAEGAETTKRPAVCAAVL
UniProt P25103, sequence (whole entry, looked up): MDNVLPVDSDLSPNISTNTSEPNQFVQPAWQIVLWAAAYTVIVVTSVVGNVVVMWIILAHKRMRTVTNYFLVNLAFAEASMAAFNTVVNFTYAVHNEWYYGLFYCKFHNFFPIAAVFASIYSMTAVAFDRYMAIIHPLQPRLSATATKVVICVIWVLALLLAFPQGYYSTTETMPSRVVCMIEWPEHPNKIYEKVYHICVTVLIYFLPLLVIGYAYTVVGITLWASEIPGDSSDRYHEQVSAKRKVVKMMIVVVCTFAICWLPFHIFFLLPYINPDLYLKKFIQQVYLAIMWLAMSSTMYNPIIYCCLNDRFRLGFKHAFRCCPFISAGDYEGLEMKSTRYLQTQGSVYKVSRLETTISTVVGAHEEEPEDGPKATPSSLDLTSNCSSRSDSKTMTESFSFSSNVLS
UniProt P80192, sequence (whole entry, looked up): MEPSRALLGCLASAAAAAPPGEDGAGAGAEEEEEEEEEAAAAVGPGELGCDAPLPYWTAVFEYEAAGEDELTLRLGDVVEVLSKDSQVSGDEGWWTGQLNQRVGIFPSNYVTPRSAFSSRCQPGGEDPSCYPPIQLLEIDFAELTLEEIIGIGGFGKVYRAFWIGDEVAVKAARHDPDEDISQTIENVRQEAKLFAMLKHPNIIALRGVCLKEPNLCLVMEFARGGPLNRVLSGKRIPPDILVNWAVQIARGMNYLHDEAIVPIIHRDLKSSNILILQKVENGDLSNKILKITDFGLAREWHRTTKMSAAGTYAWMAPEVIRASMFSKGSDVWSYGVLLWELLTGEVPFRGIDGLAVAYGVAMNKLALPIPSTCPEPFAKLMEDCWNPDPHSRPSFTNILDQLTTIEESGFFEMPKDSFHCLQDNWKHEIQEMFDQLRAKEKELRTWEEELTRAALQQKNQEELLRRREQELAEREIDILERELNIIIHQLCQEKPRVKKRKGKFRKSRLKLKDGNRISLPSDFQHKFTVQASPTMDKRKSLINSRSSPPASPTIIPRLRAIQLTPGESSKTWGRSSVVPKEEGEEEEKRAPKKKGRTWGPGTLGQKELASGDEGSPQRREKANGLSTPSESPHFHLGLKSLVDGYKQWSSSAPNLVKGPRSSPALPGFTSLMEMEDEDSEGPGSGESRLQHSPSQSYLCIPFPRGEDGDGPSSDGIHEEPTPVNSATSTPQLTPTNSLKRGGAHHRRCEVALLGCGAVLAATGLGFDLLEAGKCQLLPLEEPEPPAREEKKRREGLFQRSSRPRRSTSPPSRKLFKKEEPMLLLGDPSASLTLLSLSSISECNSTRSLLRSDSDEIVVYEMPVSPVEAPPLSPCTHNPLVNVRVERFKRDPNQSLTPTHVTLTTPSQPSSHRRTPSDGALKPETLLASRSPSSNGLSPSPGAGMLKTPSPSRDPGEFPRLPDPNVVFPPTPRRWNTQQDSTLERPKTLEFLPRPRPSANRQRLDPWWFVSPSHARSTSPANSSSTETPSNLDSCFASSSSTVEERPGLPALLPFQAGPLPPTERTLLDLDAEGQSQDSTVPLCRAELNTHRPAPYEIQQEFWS

SMILES	target or system	test	system	setting	how to read	quantity	result
Cc1nc2cccc(OCC(C)(C)C(=O)NC(C)C)c2c(N)c1C(=O)[O-].[Na+]	Salmonella typhimurium		TA98	0.13 mg per plate, without S9, preincubation		revertant colonies per plate	25 ± 6
C#CCN(Cc1ccc2nc(C)[nH]c(=O)c2c1)C(=O)NC(CSCC(N)=O)c1cccc([N+](=O)[O-])c1 (stereo not drawn)	Mycobacterium tuberculosis	bacterial growth, inhibitor	H37Rv pptT conditional knockdown	PptT depleted, ATc withheld		MIC50	37.4 µM (≈ 19 µg/mL)
CCCC1COC(Cn2cncn2)(c2ccc(Cl)cc2Cl)O1 (stereo not drawn)	Trypanosoma cruzi	reporter mRNA translation, inhibitor, item: capped polyadenylated Renilla luciferase mRNA	cell-free extract	concentration not given	baseline: control RNA	relative translation	103%
O=C1NC(=O)c2c1c1cc(F)c[n+]3c1c1c2c2cc(O)ccc2[n]1[Ru-4]312([N]=C=S)[S+]3CC[S+]1CC[S+]2CC3 (stereo not drawn)	Serine/threonine-protein kinase Chk2 (CHEK2, Homo sapiens, UniProt O96017)	enzyme activity		100 nM, human enzyme, with: 10 µM ATP	baseline: untreated	remaining activity	34%
O=C1NC2(CC2)COc2ncc(F)cc2[C@H]2COCCN2c2ccn3ncc1c3n2			Sprague-Dawley rat, female, serum	oral, 20 mg/kg/day, end of treatment, 4-week subacute toxicity		serum urea	7.32 ± 2.07 mmol/L
Cc1ccc2c(C(C[N+](=O)[O-])c3cccs3)c(-c3ccccc3)[nH]c2c1 (stereo not drawn)	Cannabinoid receptor 1 (CNR1, Homo sapiens, UniProt P21554, I245F)	β-arrestin recruitment, agonist, luciferase				Emax	107%
Nc1ccc(/C=C/C(=O)N2CCc3c(oc4c(-c5ccc(F)cc5)cc(-c5ccc(C(=O)N6CCC(F)(F)CC6)cn5)cc34)C2)cn1	Mitogen-activated protein kinase kinase kinase 9 (MAP3K9, Homo sapiens, UniProt P80192)	binding, competition with immobilised ligand		1 µM		remaining binding	95%
COc1ccccc1-c1n[nH]c2nc(N[C@H]3CC[C@H](NS(=O)(=O)CC(C)C)CC3)ncc12		bead binding, competition bead pull-down, item: LINJ.25.1530	Leishmania donovani extract	10 µM	baseline: vehicle	relative abundance	0.47
CC[C@H](C)[C@H](NC(=O)[C@H](CO)NC(=O)[C@H](Cc1ccc(O)cc1)NC(=O)[C@H](Cc1ccc(O)cc1)NC(=O)[C@H](CC(N)=O)NC(=O)CNC(=O)[C@H](CO)NC(=O)[C@H](Cc1ccc(O)cc1)NC(=O)[C@H](CO)NC(=O)[C@H](CO)NC(=O)[C@H](CC(N)=O)NC(=O)COCCOCCNC(=O)CN1CCN(CC(=O)O)CCN(CC(=O)O)CCN(CC(=O)O)CC1)C(=O)N[C@@H](CC(C)C)C(N)=O [copper-64 labelled]		dynamic PET	mouse, tamoxifen-induced PDAC, tumor	intravenous, 0.1 µg/mouse, 17.5 min		tumour uptake	8.47 %ID/mL
CC(C)(C)C(=O)OCOP(=O)(OCOC(=O)C(C)(C)C)C1CCCN(O)C1=O (stereo not drawn)	SNB-19					log TGI	-4.54 log M
Cc1sc2c(c1C)C(c1ccc(Cl)cc1)=NC(CC(=O)OC(C)(C)C)c1nnc(C)n1-2 (stereo not drawn)	5-hydroxytryptamine receptor 5A (HTR5A, Homo sapiens, UniProt P47898)	ligand displacement, radioligand		1 µM		remaining binding	107%
CCCCCn1cc(C(=O)c2ccc3c(c2)CC(C)(C)C3)c2ccccc21	Cannabinoid receptor 1 (CNR1, Homo sapiens, UniProt P21554)	agonist, BRET			baseline: Gαi1 over β-arrestin 2, reference agonist	bias factor (ΔΔlog(Emax/EC50))	0.21
COc1ccccc1-c1n[nH]c2nc(NC3CCN(C(=O)Cc4ccc(F)cc4F)CC3)ncc12		bead binding, competition bead pull-down, item: LINJ.26.1590	Leishmania donovani extract	10 µM	baseline: vehicle	relative abundance	0.93
Cc1cc(Oc2nc(N3CC[C@@H](c4ccncc4)C3)ncc2F)[nH]n1	skin cancer cell lines	cell proliferation		average over lines		IC50	56.2 µM
O=C(NC1CCN(c2ncnc3[nH]cnc23)CC1)c1cccc(NS(=O)(=O)c2ccc(C(F)(F)F)cc2)c1	Replicase polyprotein 1ab, nsp14 (rep, Human coronavirus 229E, UniProt P0C6X1)	enzyme activity		0.7812 µM		inhibition	12.5%
CN(C)[C@H]1C[C@@]23CC[C@@]4(O2)C(=CC[C@]2(C)[C@@H](c5ccc6ccncc6c5)CC[C@H]24)C=C3[C@@H](O)[C@@H]1O	Dual specificity mitogen-activated protein kinase kinase 4 (MAP2K4, Homo sapiens, UniProt P45985)	ATP probe labelling, inhibitor, KiNativ profiling		1 µM		inhibition	9.5%
CC(C)CC(O)(CC(C)C)c1cn(C(=O)N2CCCC2)nn1	sn-1-specific diacylglycerol lipase ABHD11 (Mus musculus, UniProt Q8K4F5)	probe labelling, inhibitor, item: Abhd11	mouse, brain	i.p., 0.8 mg/kg, 4 h, protein level	baseline: treated over vehicle mice, lower = stronger inhibition	activity ratio-of-ratios	3.17
N[C@H](C(=O)N1CCCC1)C1CCN(c2nccc3c(-c4ncc(Cl)cc4Cl)cccc23)CC1	Substance-P receptor (TACR1, Homo sapiens, UniProt P25103)	functional response, agonist		10 µM		response	2%
CS(C)(=O)=Nc1ccc(-c2ccc(-c3nc4cc(O[C@@H]5CO[C@H]6[C@@H]5OC[C@H]6O)[nH]c4cc3F)cc2)cc1	Insulin-like growth factor 1 receptor (IGF1R, Homo sapiens, UniProt P08069)	enzyme activity, inhibitor		10 µM		inhibition	28%
CC(C)[C@H]1NC(=O)C[C@H]2/C=C/CCSSC[C@@H](NC1=O)C(=O)N[C@H](Cc1cccc3ccccc13)C(=O)NCC(=O)O2	NPM/ALK (Nucleophosmin/ALK tyrosine kinase receptor) (NPM1/ALK, Homo sapiens, UniProt P06748+Q9UM73)	enzyme activity, inhibitor		10 µM		inhibition	1.2%
CCCn1ncc(CN2CCCC(C(=O)c3cccc(OC)c3)C2)c1C (stereo not drawn)	Trypanosoma cruzi	reporter mRNA translation, inhibitor, item: Renilla luciferase mRNA	cell-free extract	concentration not given, test 1	baseline: positive over negative control	translation activity	128% and 109%

Some of these lines once more:
SMILES	target or system	test	system	setting	how to read	quantity	result
Cc1cc(Oc2nc(N3CC[C@@H](c4ccncc4)C3)ncc2F)[nH]n1	skin cancer cell lines	cell proliferation		average over lines		IC50	56.2 µM
O=C(NC1CCN(c2ncnc3[nH]cnc23)CC1)c1cccc(NS(=O)(=O)c2ccc(C(F)(F)F)cc2)c1	Replicase polyprotein 1ab, nsp14 (rep, Human coronavirus 229E, UniProt P0C6X1)	enzyme activity		0.7812 µM		inhibition	12.5%
CN(C)[C@H]1C[C@@]23CC[C@@]4(O2)C(=CC[C@]2(C)[C@@H](c5ccc6ccncc6c5)CC[C@H]24)C=C3[C@@H](O)[C@@H]1O	Dual specificity mitogen-activated protein kinase kinase 4 (MAP2K4, Homo sapiens, UniProt P45985)	ATP probe labelling, inhibitor, KiNativ profiling		1 µM		inhibition	9.5%
